Published values of several laboratories.
Each numbered part is a random draw from the data of one study; scales do not carry over between parts. Positions count from the first letter of the parent shown.

Series 1
Target: RING finger protein unkempt homolog, zinc fingers 1-6, GST-SBP tag (UNK, Homo sapiens, UniProt Q9C0B0, residues 30-357)
Sequence of UniProt Q9C0B0 (30-357, looked up): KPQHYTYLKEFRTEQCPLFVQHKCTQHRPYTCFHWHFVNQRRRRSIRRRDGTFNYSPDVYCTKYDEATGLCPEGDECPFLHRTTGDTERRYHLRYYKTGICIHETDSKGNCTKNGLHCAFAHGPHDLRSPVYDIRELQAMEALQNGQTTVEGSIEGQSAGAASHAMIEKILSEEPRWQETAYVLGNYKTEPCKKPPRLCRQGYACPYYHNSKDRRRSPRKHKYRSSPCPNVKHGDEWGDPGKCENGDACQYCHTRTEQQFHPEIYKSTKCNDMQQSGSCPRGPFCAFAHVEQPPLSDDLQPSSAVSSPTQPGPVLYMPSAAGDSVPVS
Technique: RNA Bind-n-Seq
Molecule type: RNA
Matrix: in vitro
Concentration: not given
Notes: RNA with constant flanks, human and mouse sites, ends assumed
Reference: input RNA pool
Reading: higher = stronger binding
Constant ends, left off below: GGGAGUUCUACAGUCCGACGAUC … CAACAGAGGAUUGAGCAUCA
Strand	bound/input enrichment
UGGUCAAUAUUCCUAGGAAUGGGAACAUUACUCUGGGGCCAGCUUAUUUCAACAAUUCCAACUAGCCGUUUAAAAUUCCUCAAAGAAGCUGGUCAUGGAACACAAAAGGAAGAAAUACCU	1.02 ratio
ACCCGUUACAUUCAGGGAACAGGUGGUGAUGAGGUUGAUGAUUCUAUGGGUGUAAAUGACAUAGAUAUAAGCCUGUACGUCCCAAGAGAUGUAGAAGAGACAGGUAUCACUGUGGCCAGU	0.177 ratio
GUGUUCGAGGAGAUGAACGUGGAUCUGCAGGAGGAGCUGCCAUCCCUGUGGAACAGCCGUGUAGGUUUCUAUGUCAACACGUUCCAGAGCAUCGCGGGUCUGGAGGAAAACUUCCAUAAA	0.119 ratio
AGUGUUCAUACUGACUGGUUACUGGAUCUUUAUGCUGGAAAUAUAAAGACAUUGCAGAAACUCCCACACAUUCUUAAGGAACUGCCUGAGAAUUUGAAAGUGUGUCCUGGGGUACACACU	0.232 ratio
CCUGACACUCGGCGCUUCCGAUUUGCCCUCCCUUCACCCCAGCACAUCCUGGGCCUUCCUAUUGGCCAACACAUCUACCUCUCGACUAGGAUCGAUGGCAACUUGGUCAUUCGGCCCUAC	0.336 ratio
GUCCAGCGCCUGAAUGAACUUGAGGCAAUGACCAGAGUGAGAUUGGAUUUCUUGGAUCAACUAGCAAAAUUUUGGGAACUUCAAGGAUCUACUCUGAAGAUCCCUGUGGUAGAGAGAAAA	1.18 ratio
AGAAGUCUUGUGAUGAAAAUGGCACUUGGAAAAGGUUUUAUUUUUCCACUGAAGUUGAAGGUUAAUAAAAUGGUGUCAAACGUCCCCUGGUCACACACUUGAAUAUUUUUUUAGAAGUGU	0.417 ratio
AUAAAGGCUAUGUUGAGUGGUCCAGGUCAGUUUGCUGAGAAUGAAACCAACGAGGUCAAUUUUAGAGAGAUCCCCUCACAUGUGCUAUCAAAAGUGUGCAUGUAUUUUACCUACAAGGUC	0.174 ratio
AAGGAAUCAACGUUAAUUCAAAAAAAUAUAUUUGACCUUUCCAAUCAUUUAUCUCAGGUAGCACAGAAUACACAGAUAUCUUCUGGUAUGUCCUCAAAGAUAGAAGAUAAUGCAAAUAAU	0.522 ratio
AGAAUGCUCUCUGGGAGGACUUCCACCGGGGCAGAGCAGGCUGCCCAGCCGAAGCGGGAAGGGCAUGUUGGGCAAGCUGCUGGAGCGACUGAUGUACAGUUGUUAUUUGUCUAUAAAUGG	0.169 ratio
UCUCGGGGUUUCAAAACGUUGAAAUCAAGGACACGACGUUUGCAGUCUACCUCUGAAAGAUUAGUAGAAGCACAGAAUAUAGCACCAUCAUUUGUGAAGGGGUUUCUUUUGCGGGACAGA	0.264 ratio

Series 2
Target: Transcriptional repressor CTCF (CTCF, Homo sapiens, UniProt P49711, residues 1-727, full length assumed)
Sequence of UniProt P49711 (whole entry, looked up): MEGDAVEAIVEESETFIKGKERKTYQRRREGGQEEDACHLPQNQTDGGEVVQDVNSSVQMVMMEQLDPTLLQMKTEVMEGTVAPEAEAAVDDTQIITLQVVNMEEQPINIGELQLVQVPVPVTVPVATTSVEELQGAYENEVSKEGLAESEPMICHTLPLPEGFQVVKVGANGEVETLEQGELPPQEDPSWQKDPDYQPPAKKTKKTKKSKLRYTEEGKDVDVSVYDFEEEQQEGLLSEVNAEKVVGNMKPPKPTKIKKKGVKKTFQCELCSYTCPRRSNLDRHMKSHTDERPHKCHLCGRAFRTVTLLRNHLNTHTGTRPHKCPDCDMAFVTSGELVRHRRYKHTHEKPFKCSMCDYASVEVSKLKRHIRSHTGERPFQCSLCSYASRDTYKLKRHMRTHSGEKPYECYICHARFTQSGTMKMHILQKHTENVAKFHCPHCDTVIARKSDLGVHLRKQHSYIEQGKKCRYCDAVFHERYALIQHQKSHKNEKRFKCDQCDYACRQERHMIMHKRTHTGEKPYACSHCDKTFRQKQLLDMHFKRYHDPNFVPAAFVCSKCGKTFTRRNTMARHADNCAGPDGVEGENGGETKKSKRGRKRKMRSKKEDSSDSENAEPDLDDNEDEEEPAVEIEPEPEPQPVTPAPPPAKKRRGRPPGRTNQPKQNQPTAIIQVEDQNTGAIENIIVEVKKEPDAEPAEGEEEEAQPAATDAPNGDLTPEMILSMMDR
Technique: protein-binding microarray
Molecule type: double-stranded DNA, one strand shown
Matrix: in vitro
Concentration: not given
Notes: k-mer, scored over probes, only values ≥0.25
Reading: higher = stronger binding
Strand	E-score
TCGGAAAA	0.296
AATTTACG	0.296
AGTATAAG	0.299
AATACAAC	0.301
AATTTTTA	0.271
AACAATCA	0.274
TTAATTAA	0.283
CATTACAA	0.304
GAATTTTA	0.28
GTACATTA	0.277
ATAATCAG	0.358
TAAAAAAA	0.28
ACAAATGC	0.262
GCGCATTA	0.411
TGGCGCAA	0.434
ATATAAGA	0.325

Series 3
Target: CCNE2, cyclin fold, Cln2 fusion (human)
Technique: yeast growth competition, sequencing
Matrix: yeast
Notes: strong parent motif
Reference: not given
Reading: higher = stronger binding
Starting sequence: BRCA2 docking peptide (human); PSIKRNLLNEFDR; partner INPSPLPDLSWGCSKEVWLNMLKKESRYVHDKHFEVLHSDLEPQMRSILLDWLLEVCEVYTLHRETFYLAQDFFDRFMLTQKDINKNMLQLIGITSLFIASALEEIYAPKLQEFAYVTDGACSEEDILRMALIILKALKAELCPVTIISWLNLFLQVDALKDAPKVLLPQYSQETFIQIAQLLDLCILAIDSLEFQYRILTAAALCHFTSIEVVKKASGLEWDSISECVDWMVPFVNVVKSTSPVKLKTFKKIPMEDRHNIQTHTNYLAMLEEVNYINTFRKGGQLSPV
Change	normalised enrichment score
L8C	0.565
D12T	2.11
L8F	1.18
P1D	1.59
I3A	2.55
F11G	0.97
F11C	-0.129
I3S	0.701
R13L	1.39
R13P	0.897
K4E	-0.167
N9A	2.32
R5F	-0.772
L8V	1.23
L7M	0.315
D12V	1.86
S2D	0.831
S2K	1.37
R13D	0.877
I3V	4.08
N9R	2.3
N9Q	1.52
F11L	0.885
R5Q	-0.0607
L8M	2.75

Series 4
Target: MAFG, bZIP domain (human)
Technique: DHFR protein complementation
Matrix: yeast
Notes: single substitutions, most at no-binding floor
Reference: wild-type JUN-FOS pair
Reading: higher = stronger binding
Starting sequence: JUN, bZIP domain (human); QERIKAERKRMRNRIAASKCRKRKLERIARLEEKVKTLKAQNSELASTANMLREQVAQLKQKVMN; partner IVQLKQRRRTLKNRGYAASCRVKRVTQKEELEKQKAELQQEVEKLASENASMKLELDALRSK
Change	binding fitness
E54H	-1.2 natural log
E44P	-1.55 natural log
L52Q	-1.51 natural log
Q55T	-1.51 natural log
N42C	-1.27 natural log
E33T	-1.31 natural log
K34R	-1.53 natural log
I28L	-1.51 natural log
Q41R	-1.48 natural log
L52E	-1.47 natural log
E32A	-1.51 natural log
A46Y	-1.51 natural log
A40R	-1.3 natural log
R30Q	-1.43 natural log
M51H	-1.46 natural log
L31E	-1.45 natural log

Series 5
Target: ABI1, truncated, D143A, DHFR fusion (Arabidopsis thaliana)
Technique: DHFR PCA, deep sequencing
Matrix: yeast
Notes: methotrexate growth selection, single substitutions
Added: (+)-ABA 1.4 µM
Reference: wild-type fitted maximum
Reading: higher = stronger binding
Starting sequence: PYL1, truncated, DHFR fusion (Arabidopsis thaliana); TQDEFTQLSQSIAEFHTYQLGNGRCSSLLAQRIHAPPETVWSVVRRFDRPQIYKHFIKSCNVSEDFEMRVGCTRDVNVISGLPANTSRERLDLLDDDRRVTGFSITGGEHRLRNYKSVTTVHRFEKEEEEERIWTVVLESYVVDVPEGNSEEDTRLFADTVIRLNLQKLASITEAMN
Change	relative binding score [%]
H55V	97
E14M	23.3
V136D	-0.81
S80P	1.79
R163A	43.8
L94N	0.589
R113N	55.8
S42C	24.4
L91F	-2.74
N149K	7.79
V44D	-2.34
P37L	10.1
T173N	4.38
I79Q	36.8
S117V	5.97
L93W	19.1
K126N	75.3
L164V	60.7
K168N	85.6
V145Q	-24.7
Y115E	-5.44
D48A	-2.16
W134E	79.7
S117T	4.87

Mixed results
Substance	target	test	test system	setting	scale	measurement	result
PhoQ, residues 284 288 289 292 302 303 SQSLSM	PhoP, residues 12 14 15 18 19 SMASL (Escherichia coli, UniProt P23836)	Sort-seq, measured: YFP reporter	E. coli	PhoQ-PhoP variant library, added: 10 µM Mg2+	reference: high Mg2+ state, higher = stronger signaling	fold induction	12.1

Repeated from above (series 3):
Change	normalised enrichment score
L7M	0.315
S2K	1.37
F11C	-0.129
S2D	0.831
I3V	4.08
N9A	2.32
F11L	0.885
R5F	-0.772
I3S	0.701
N9R	2.3
L8C	0.565
P1D	1.59
R13L	1.39
K4E	-0.167
L8V	1.23
